Measurements gathered from unrelated publications.
Each numbered part is a random draw from the data of one study; scales do not carry over between parts. Positions count from the first letter of the parent shown.

Sample 1 — technique: protein binding microarray; molecule type: double-stranded DNA, one strand shown; medium: in vitro; concentration: not given; reference: not given; reading: higher = stronger binding; measurement: E-score
Target: Histone acetyltransferase KAT6A, both winged helices, GST fusion (KAT6A, Homo sapiens, UniProt Q92794, residues 1-181)
Notes: 8-mer, flanks averaged, mean of 2 arrays, mostly near background
Residues (chain): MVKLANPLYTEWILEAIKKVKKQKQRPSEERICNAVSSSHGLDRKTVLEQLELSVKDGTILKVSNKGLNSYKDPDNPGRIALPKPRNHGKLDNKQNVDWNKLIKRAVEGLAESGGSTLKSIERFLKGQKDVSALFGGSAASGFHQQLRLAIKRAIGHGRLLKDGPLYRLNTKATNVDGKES
Sequence = TATACTGA; value = -0.0704
Sequence = CCGCAACC; value = 0.144
Sequence = AAACTCAG; value = -0.168
Sequence = CTTTTCAA; value = -0.0951
Sequence = AACCTAAA; value = -0.103
Sequence = GTTAAGTA; value = -0.165
Sequence = CGGCGAAC; value = 0.315
Sequence = AGAGCTCT; value = -0.0764
Sequence = GGCATAAA; value = 0.0954
Sequence = AGAGCAGA; value = -0.15
Sequence = AAACATTT; value = -0.025
Sequence = ACTCTGGG; value = -0.183
Sequence = TATACGAA; value = -0.0266
Sequence = CGCATTTC; value = 0.144
Sequence = GCCAACAA; value = -0.17
Sequence = CAGCTCCG; value = 0.0484
Sequence = AACTGAGG; value = -0.00451
Sequence = GTTTCTAA; value = 0.119
Sequence = CGCTAGAA; value = 0.0742

Sample 2 — technique: RNA Bind-n-Seq; molecule type: RNA; medium: in vitro; concentration: 365 nM; reference: no-protein control; reading: higher = stronger binding; measurement: RBNS enrichment (R)
Target: RNA binding protein fox-1 homolog 2, RRM domain, GST-SBP tag (RBFOX2, Homo sapiens, UniProt O43251-10, residues 100-194)
Notes: natural RNA segment, single round, ends assumed
Residues (chain): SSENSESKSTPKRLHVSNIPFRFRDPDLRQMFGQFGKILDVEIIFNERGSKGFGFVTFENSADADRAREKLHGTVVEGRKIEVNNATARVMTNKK
Sequence = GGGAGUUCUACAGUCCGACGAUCUUAAAAAAAUAAUUGGUUGACUUAAUAUAUUUGCUUUUUUUCUCACCUGCACUUAGAGGAAAUUUGAACAAGUUGGAAAAAAACAAUUUUUGUUUCAAUUCUAAGAAACAUGGAAUUCUCGGGUGCCAA; value = 2.18
Sequence = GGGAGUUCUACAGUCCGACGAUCUUAGAGUUGAUAAGGGUUUAUAUCUCAUCUGUCCAUAUUGUUUGCAAAGGAACAAGGUUUUAUGUAGGUGAGAGAAAGCAUUUGUACGAAGUUAGAUUUGAACAUAGAUAUGGAAUUCUCGGGUGCCAA; value = 0.467
Sequence = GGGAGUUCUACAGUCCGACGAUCCGAAUUCAUUUUGUAAAUAAUGUUCAACGUUAAGAAUACCUAUAUUCCUUUUGUAGAUGAGUAUGAUUUUGAAACUGAAGAAAUUAAUACAGAGGCAAGAUUUUAGGAGUUGGAAUUCUCGGGUGCCAA; value = 0.31
Sequence = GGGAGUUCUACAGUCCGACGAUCUAUUUCCUGGGGAUUGUUUGCUUUUUAAGUGAAACACUUCUGACCAAUAGCACAGAACGUCUUAAUGCCAGAGGUCACUUCAGCAUCUUCCUGCUUUGAAAACUCACGCUUGGAAUUCUCGGGUGCCAA; value = 0.29
Sequence = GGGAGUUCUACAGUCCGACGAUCACUUAAACUUUGCAUUGAAAGUUUGGAAAAUUACUUGAAAUAAAAAAAGAUUUUUAUACAAAUACAACCUUUAUAGAGAAAUCUGAUUGCUAAGGAAAUAGAAGGGGAAAUGGAAUUCUCGGGUGCCAA; value = 0.722
Sequence = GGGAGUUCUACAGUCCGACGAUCGUUGAAGAUCUAUCUAUGCAUUUUUUUACACUUACACAUAAACUGGUAUUUUCGAACAAUAGGAAACUAUUUUUUCUCCUUUUUUUACAGUUUUAGUACGUAUCUGGCUUUGGAAUUCUCGGGUGCCAA; value = 0.652
Sequence = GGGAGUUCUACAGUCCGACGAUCAUGUUUUUGAGGGAUCCGGUCCCAAGACCGCUACUUAAGGAAGGGCUACAGACUUAAGGAACUCCACAGUCCUGGGAACCCUGUUCCGAGGGUACCCACUACUCAGGCCUUGGAAUUCUCGGGUGCCAA; value = 0.185
Sequence = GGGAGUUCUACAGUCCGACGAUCCGAGAAGAACUUGCCCCUGUUCUUACCUAGCUUCUUUGAGUCAGUCAGUGUGCAGAGCUCCUUUCUGGCCACACCUCUGUGAACCCCUAUAUUUUCUGGGACUGGAAGGAUGGAAUUCUCGGGUGCCAA; value = 0.834
Sequence = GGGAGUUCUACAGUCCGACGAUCCUGUUAGACAUUGGGUUCUCCUUUACGUUGCCCUAUUGCUUUAAUAACAUCAAGAUCUCUCCUAGUUAAGAGGUGUUUAAUUAAAAAAAAAAAGCAUCUAGGAUAAAUAUUGGAAUUCUCGGGUGCCAA; value = 0.299
Sequence = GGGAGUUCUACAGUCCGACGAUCAGUCUUCUCAACCAAGCUUAACUCGAGUUGUCUUCUCAGCCCUCAAAAGGCUCUUGUACAAAAUGUAGAUUAAAAUUUGGGUGAUUGUUGAUUGACCUUUGCAUACCCUGUGGAAUUCUCGGGUGCCAA; value = 0.258
Sequence = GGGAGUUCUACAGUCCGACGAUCUUCUCAUACCUUCACAUUUCUCAGUCCUGAAGAUUAAGGAAACAAAGCACCGCCUAUUUUGUAUAAAGUUUCUGAUUCCGUCUUGGCUGUCUAGUGCGUGCUAUCUGUGUUGGAAUUCUCGGGUGCCAA; value = 0.966
Sequence = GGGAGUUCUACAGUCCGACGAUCAAAAUAUUUUUAAAAGAUCUUCAAAAGUAAUGCCUCUGUCUAGCAUGCCAACAAGAAUGCAUUGAUAUUGUGAACAUUUGUGAUAUAUGUAUUAAUAAAUAGAGCAAUUAUGGAAUUCUCGGGUGCCAA; value = 12.9

Sample 3 — technique: RNA Bind-n-Seq; molecule type: RNA; medium: in vitro; concentration: 100 nM; reference: input RNA pool; reading: higher = stronger binding; measurement: bound/input enrichment
Target: RING finger protein unkempt homolog, zinc fingers 1-6, SBP tag (UNK, Homo sapiens, UniProt Q9C0B0, residues 30-357)
Sequence of UniProt Q9C0B0 (30-357, looked up): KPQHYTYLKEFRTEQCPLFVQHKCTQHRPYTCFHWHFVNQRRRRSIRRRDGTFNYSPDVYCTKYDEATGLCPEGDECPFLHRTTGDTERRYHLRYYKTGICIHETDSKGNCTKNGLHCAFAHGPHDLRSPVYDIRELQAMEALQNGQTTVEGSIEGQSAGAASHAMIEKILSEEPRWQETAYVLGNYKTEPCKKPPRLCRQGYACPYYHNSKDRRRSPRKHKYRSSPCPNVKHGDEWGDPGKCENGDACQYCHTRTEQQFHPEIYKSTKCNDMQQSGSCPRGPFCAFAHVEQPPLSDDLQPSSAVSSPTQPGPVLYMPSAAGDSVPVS
Notes: RNA with constant flanks, vertebrate orthologous sites, ends assumed
Sequence = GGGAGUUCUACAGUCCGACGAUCAAGCCCUAGUUCUUGAACCAACACCCGUAAAAGAUUUAGAAAAAAGUUUACAACAUAAUCUAGUUUACCGAAGACGCCUUGUGCUAGAAUACUUUUUAAAAAGUAUUUUUGAAUACCAUUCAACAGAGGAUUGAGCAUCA; value = 0.672 ratio
Sequence = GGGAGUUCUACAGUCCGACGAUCCAGGGUGGGACCCGGGACCUACUGCUCAGUGGCCCGCUGGCCACGUCAGCUAAGCCACUUUAGGUCCAUUUUUUAUUUUAACAGUGCUCUUCCAUUCUGUGCGUAAGCCCGAGAUUUGGACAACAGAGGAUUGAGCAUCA; value = 0.833 ratio
Sequence = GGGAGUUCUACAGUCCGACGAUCAUUCAAACCUGUGGUGCCUUGGCCUCACGUGGAGGGAGUAGAAGUGGAUUUGGAGUCGAUCCGCAGGAAAAACAAGGCCAAAAAUGAACAAGAGCUUCAAGCUGGGAAUGAGAACCAGCACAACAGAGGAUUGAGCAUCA; value = 0.449 ratio
Sequence = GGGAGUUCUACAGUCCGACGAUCUUCAGGCACAACUGACUGGUUCACAGCAUUCCUUACACGGUUAUCUAUCAAAUGCAAGUGGGGUUAAUUUUCAGGAAACAAGCAGGCAGUCAUCUUUAUCCUGUAGCCCAAUUGGAGAGUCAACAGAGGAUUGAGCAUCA; value = 0.856 ratio
Sequence = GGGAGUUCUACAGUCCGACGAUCGAAGUUAUAGAAAAGAGCCAAGCAGUAGCAUUUUCCCCCAUAAAUGGAAGUUAAAAUAAUCAGACCCUGCCUGUUUCCUUGCGCAAGUUUAAGAAUAAAAAAAUACCUCAGUGCUGUGAUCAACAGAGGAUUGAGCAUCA; value = 0.986 ratio
Sequence = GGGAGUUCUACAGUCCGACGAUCCUGUUGUGUGAAAAAUGUCUAUCCAGAGAAGUAACAUUCUAUAAAUAUUAUCAAAUAAUACAGCUAGAGUAUUUUUAGGUAUUAAAUUAUUUGUCAAGCAUUUAAAGUGAAUUUGAGAUUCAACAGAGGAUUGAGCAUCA; value = 0.511 ratio
Sequence = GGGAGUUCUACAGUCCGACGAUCAGCAACUCAAGGAUUCAGAACUGGUUUUACAAAUGUCCCAAGCAGAUAUGGAAGCAACGCUCGUGGUCAGCCCCGACCGUAAUAAACACCAUUAUUUAUUAUACUUAAGGGUAUUGACUUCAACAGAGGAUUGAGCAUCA; value = 0.404 ratio
Sequence = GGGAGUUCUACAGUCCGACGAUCUCAUUGUGCUGCAAAAAUCAUCCUCUUUCUAAAUUAGCCACAGUGAUAACUAGUCUGCACUAGUAGAAUCAUUUACCUUUUAAACUAUCUGCUUUGUCUGAUACCUGAAACACAUCAAAACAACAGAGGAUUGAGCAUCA; value = 0.53 ratio
Sequence = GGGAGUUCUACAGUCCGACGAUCAUUUCUAGUACUUAAGCUAACAACAGUUCUAAAAUAUUUAUUUGUCUGUAUGUUUGUACAUAGUACCAACCUCAUAUCGUUGCAGAUUUCUUUUUUCCAUGAGUUUGAGUUUGGUUUUAUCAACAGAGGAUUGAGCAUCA; value = 0.42 ratio
Sequence = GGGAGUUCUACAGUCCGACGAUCGGUCAUUUAUAGCAAUUAGAGUGGGUUGCCCCUCUACUUCUCCCAAGAAGAAAUCCCAAAUAGCUUCCUUUCAUGUCAGAUUAUACUGUUCUGAUUUUAUUUUCUAUUAUUUUUACAUAUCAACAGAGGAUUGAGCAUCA; value = 3.4 ratio
Sequence = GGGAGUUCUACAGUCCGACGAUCUCCUCAACUUCUUCUAGCUUGUGGUCCUUCAAAGCUGGGGUGGACAUUAGUGCUAGAUACUAGAAAUCUUCAUUUCCCUGUUGCCAGUGAUCAGAGAGACAGGCAUUAAAACAGGAAUAUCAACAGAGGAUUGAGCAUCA; value = 0.849 ratio

Sample 4 — target: CCND1, cyclin fold, Cln2 fusion (human); technique: yeast growth competition, sequencing; medium: yeast; notes: weak parent motif; reference: not given; reading: higher = stronger binding; measurement: normalised enrichment score
Starting sequence: AKAP12 docking peptide (human); GSPLKKLFTSTGL; partner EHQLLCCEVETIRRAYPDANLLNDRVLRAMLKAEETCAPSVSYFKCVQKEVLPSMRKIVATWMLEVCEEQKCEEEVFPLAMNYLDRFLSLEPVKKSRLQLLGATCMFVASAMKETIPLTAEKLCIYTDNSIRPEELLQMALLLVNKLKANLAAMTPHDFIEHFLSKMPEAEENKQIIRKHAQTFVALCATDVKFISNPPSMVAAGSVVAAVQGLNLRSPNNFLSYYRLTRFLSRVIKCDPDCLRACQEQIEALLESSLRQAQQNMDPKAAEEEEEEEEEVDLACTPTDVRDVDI
Variant = GSPLRKLFTSTGL [K5R]; value = 0.307
Variant = GSPLKKLLTSTGL [F8L]; value = 0.483
Variant = GSPLAKAFTSTGL [K5A L7A]; value = 0.133
Variant = GSPAKKLFTSTGL [L4A]; value = 0.865
Variant = GSPLKKLFTATGL [S10A]; value = 0.341
Variant = GSPLKKLATSTGL [F8A]; value = -0.0671
Variant = GSPLKKAFTSTGL [L7A]; value = 0.315
Variant = GAPLKKLFTSTGL [S2A]; value = 0.674
Variant = GSPLAKLFTSTGL [K5A]; value = -0.436
Variant = ASPLKKLFTSTGL [G1A]; value = 0.206
